Results pooled from the literature.
Each numbered part is a random draw from the data of one study; scales do not carry over between parts.

Study 1 — effect on: enzyme activity; mode: inhibitor
Target: Replicase polyprotein 1ab, main protease (rep, Severe acute respiratory syndrome coronavirus 2, UniProt P0DTD1)
SMILES | IC50 [µM]
NC[C@@H]1O[C@H](C23CC4CC(CC(C4)C2)C3)Cc2c1ccc(O)c2O | > 20
O=C1C[C@@H]2OCC=C3CN4CC[C@]56c7ccccc7N1[C@H]5[C@H]2[C@H]3C[C@H]46 | 10.4
O=C(O)/C(S)=C/c1ccc(I)cc1 | 20.3
C=CCN1CCc2cc(O)c(O)cc2C(c2ccccc2)C1 (stereo not shown) | > 20

Study 2 — cell line: HEK-293T/ACE2; tested at: 10 µM; time: 16 h; reference: vehicle
Structure (SMILES) | viability [%]
C[C@H](CCC(=O)O)[C@H]1CC[C@H]2[C@@H]3[C@@H](O)C[C@@H]4C[C@H](O)CC[C@]4(C)[C@H]3CC[C@]12C | 100
Nc1ncnc2c1ncn2[C@@H]1O[C@H](CO)[C@@H](O)[C@H]1O | 99.8
Oc1ncnc2[nH]ncc12 | 101

Study 3 — technique: RNA Bind-n-Seq; form: RNA; medium: in vitro; tested at: not given; setting: 4-mer, random 30-nt RNA, single round; with: RocA, ADP, phosphate; reference: input library; direction: higher = stronger binding
Target: Eukaryotic initiation factor 4A-I (EIF4A1, Homo sapiens, UniProt P60842, residues 1-406, full length assumed)
Chain of UniProt P60842 (whole entry, looked up): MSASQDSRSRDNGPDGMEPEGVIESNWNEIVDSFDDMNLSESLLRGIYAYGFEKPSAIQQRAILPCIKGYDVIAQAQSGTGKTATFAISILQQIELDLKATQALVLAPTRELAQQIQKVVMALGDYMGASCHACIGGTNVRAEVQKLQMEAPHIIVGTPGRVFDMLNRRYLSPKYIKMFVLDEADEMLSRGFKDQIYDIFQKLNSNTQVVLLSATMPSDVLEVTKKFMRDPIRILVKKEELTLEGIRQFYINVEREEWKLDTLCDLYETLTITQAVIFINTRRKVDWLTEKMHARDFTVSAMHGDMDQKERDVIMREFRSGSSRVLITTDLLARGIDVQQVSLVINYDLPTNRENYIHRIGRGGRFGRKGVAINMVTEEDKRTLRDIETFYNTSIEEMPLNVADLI
Oligonucleotide | 4-mer enrichment [fold]
AUAU | 0.906
UAUC | 0.645
GAUC | 0.741
GACA | 0.834

Study 4 — technique: protein binding microarray; form: double-stranded DNA, one strand shown; medium: in vitro; tested at: not given; reference: not given; direction: higher = stronger binding
Target: Histone acetyltransferase KAT6A, winged helix 1, GST fusion (KAT6A, Homo sapiens, UniProt Q92794, residues 1-85)
Setting: 8-mer, flanks averaged, mean of 2 arrays, mostly near background
Residues (chain): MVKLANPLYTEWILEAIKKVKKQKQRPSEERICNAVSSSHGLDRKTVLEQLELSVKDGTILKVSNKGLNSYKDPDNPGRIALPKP
Oligonucleotide | E-score
CAAAACCG | 0.147
AGTGCGCA | 0.338
CAAGTCCC | -0.0723
ATCTCGCC | 0.153
TTCACGAA | -0.0327
GAATAATC | -0.272
CAGCAAGC | -0.14
ATGCGGGG | 0.247

Study 5 — technique: RNA Bind-n-Seq; form: RNA; medium: in vitro; tested at: not given; reference: input RNA pool; direction: higher = stronger binding
Target: RING finger protein unkempt homolog, zinc fingers 1-6, GST-SBP tag (UNK, Homo sapiens, UniProt Q9C0B0, residues 30-357)
Chain of UniProt Q9C0B0 (30-357, looked up): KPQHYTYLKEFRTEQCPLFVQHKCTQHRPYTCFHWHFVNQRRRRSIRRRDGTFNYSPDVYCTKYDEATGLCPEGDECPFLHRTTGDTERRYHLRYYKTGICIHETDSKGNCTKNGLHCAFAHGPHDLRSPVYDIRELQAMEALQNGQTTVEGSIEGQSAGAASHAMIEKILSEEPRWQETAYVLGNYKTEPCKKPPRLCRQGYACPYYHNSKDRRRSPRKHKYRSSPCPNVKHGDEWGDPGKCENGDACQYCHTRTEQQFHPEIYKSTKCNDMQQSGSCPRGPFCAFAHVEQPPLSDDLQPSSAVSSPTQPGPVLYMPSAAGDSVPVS
Setting: RNA with constant flanks, human and mouse sites, ends assumed
Oligonucleotide | bound/input enrichment [ratio]
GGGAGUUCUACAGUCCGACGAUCCACGCUGGUGCCCCGGAAGACGCCUCGCAAGAGGAGGAAUCUGUUCUCUGGACGAUAUUAAUUAGCAUUUUGAAACUGGUACUUGAAAUUCUCUUUUGAGUCGUUGACCACACUCUGGGACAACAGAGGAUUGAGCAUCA | 5.5
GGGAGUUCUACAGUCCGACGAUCUUAGCUUUGUUAAAUGUAGCAACUCAGGGAGUUCAUUUAUGGGACUUGCAAGACAGAGUUUUAGUAAGGAAAUAUCAAGGUGUUACCCAAGGGUUUUAUACAAUCCACUCGUGUUUUGGACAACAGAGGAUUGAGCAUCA | 2.1
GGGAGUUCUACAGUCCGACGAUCUUAAAGCUGGUUGGGAAUUAUGUAAGAAAUAUACGGCAUUAUGAAAUUACAAAACAAGAUAUUAAAGUGGCAAUGUGUGCUGACAAGGUAUUGAUGGAUAUGUUUCAUCAAGAUGUAGAACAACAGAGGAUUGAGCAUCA | 1
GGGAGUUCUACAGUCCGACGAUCUUUUUUCCUGAUUUAGCAGGAGCCCCUUUCUAUUUCAGUUUCAUUUUCAGCAUAGUAGCCUUUCUAUACUUUUUCUAUAAGACUUGGGCAACUGAUCCAGGCUUCACUAAGGCUUCUGAACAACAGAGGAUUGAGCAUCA | 6.34
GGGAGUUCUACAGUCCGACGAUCGCUUGUGCCACUCAGGCUAUCGUAAGUGUACUACUGAACUGUACGCAUCAAGAUGUGCAUUUAGGAGAGACAUUAUCAGAAUUUAAAGAAUUUUCUCAAAGUUUUGAUGCAGCUAUGAAGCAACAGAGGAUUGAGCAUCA | 0.776
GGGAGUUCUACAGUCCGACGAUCAUGCAAAAUUUUGGGUUGAUGAUAGCAGAUCCUAUCUGUUCGAUUCUUAUAGCCAUUCUUAUAGUUGUAAGUGUUAUUCCACUUUUAAGAGAGUCUGUUGGAAUAUUAAUGCAAAGAACUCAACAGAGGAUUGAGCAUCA | 0.647
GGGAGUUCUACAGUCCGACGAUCACUGAGCCAUUUCCUAUUUUAAAUGGCUUCUACAGUAAAUUAACAACUCAGUUAUUAAACUAGCAGGAUCCUACAAUGAUACAUCUAGUGAAAGUAGAGUUAAUUAACUUAUUUCUAUUUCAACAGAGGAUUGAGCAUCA | 0.358
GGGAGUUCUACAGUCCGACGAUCGAUAAGGUACACAUACAUUAUUUGAGUAACUGUUUCCUUGGGGGCCAAUCUGUGUAUGCUUUUAGAAGUUUACAGAAUGCUUUUAUUUUUGUCUAUAACAAACAGUCUGUCAUUUAUUUCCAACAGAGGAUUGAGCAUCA | 0.228

Study 6 — mode: inhibitor; tested at: 20 µM
Target: Replicase polyprotein 1ab, nsp13 helicase (rep, Severe acute respiratory syndrome coronavirus 2, UniProt P0DTD1)
Structure (SMILES) | inhibition [%]
CN(C)CCCSc1ccccc1NC(=O)/C=C/c1ccccc1 | 0.82
CC[C@H](CC#N)OC(=O)N[C@@H](C)c1cccc(NC(=O)Nc2ccc(-c3cnco3)c(OC)c2)c1 | 3.78
C=CCc1cc(OC)c(O)c(C(=O)NCCO)c1 | 3.08
Cc1sc2c(c1C)C(c1ccc(Cl)cc1)=N[C@@H](CC(=O)Nc1ccc(O)cc1)c1nnc(C)n1-2 | 0.89
Cc1ccc(OCCSc2ncccn2)c(Br)c1 | 2.61
COc1ccc(Cn2ccc3ccc(C(=O)NO)cc32)cc1 | 7.6
CC(=O)NC[C@H]1CN(c2ccc(-c3ccc(CNCc4cnn[nH]4)cc3)c(F)c2)C(=O)O1 | 6.22
COc1cc2c(cc1OC)-c1c/c(=N\c3c(C)cc(C)cc3C)n(C)c(=O)n1CC2 | 5.01
Cc1cnc(NC(=O)c2cc(Oc3cnc(C(=O)N(C)C)nc3)c3cc(C)oc3c2)cn1 | 0.14
O=C(Nc1nc2cccc(-c3ccc(CN4CCS(=O)(=O)CC4)cc3)n2n1)C1CC1 | 0.99
CCc1nc2ccc(Cl)cn2c1C(=O)NCc1ccc(N2CCC(c3ccc(OC(F)(F)F)cc3)CC2)cc1 | 0.66
C=CCn1c(=O)n([C@@H]2O[C@H](CO)[C@@H](O)[C@H]2O)c2nc(N)[nH]c(=O)c21 | 6.65
[N-]=[N+]=N[C@]1(CO)O[C@@H](n2ccc(N)nc2=O)[C@H](O)[C@@H]1O | 8.07
NCCCC(O)(P(=O)(O)O)P(=O)(O)O | 8.05
O=C1NC(=O)/C(=C/c2ccc3c(c2)OC(F)(F)O3)S1 | 2.48
Clc1ccc(C2(c3ccc(-c4cn[nH]c4)cc3)CCNCC2)cc1 | 10.5
N=C(N)NC(=O)c1cnn(-c2cccc3ncccc23)c1C1CC1 | 2.53
NS(=O)(=O)c1cc(-c2nnn[nH]2)c(NCc2cccs2)cc1Cl | -0.18
C[N+](C)(C)CC(=O)O | 7.47
Cc1cc(NC(=O)Nc2ccc(N(C)C)cc2)c2cc(F)cc(F)c2n1 | 8.51
CC[C@H](C)[C@@H]1NC(=O)[C@H](Cc2ccc(OC)cc2)NC(=O)CCCSC[C@@H](C(=O)N2CCC[C@H]2C(=O)N[C@@H](CC(C)C)C(=O)NCC(N)=O)NC(=O)[C@H](CC(N)=O)NC(=O)[C@H](CCC(N)=O)NC1=O | 6.14
CCOC(=O)[C@@H](N)CCC(=O)N[C@@H](CSCc1ccccc1)C(=O)N[C@@H](C(=O)OCC)c1ccccc1 | 8.97
CNS(=O)(=O)Cc1ccc2[nH]cc(CCN(C)C)c2c1 | 6.61
NCCc1ccc(O)c(O)c1 | 7.67
COc1ccc2cc([C@H](C)C(=O)O)ccc2c1 | 2.86

Repeated from above (study 1):
SMILES | IC50 [µM]
C=CCN1CCc2cc(O)c(O)cc2C(c2ccccc2)C1 (stereo not shown) | > 20
O=C1C[C@@H]2OCC=C3CN4CC[C@]56c7ccccc7N1[C@H]5[C@H]2[C@H]3C[C@H]46 | 10.4
O=C(O)/C(S)=C/c1ccc(I)cc1 | 20.3
NC[C@@H]1O[C@H](C23CC4CC(CC(C4)C2)C3)Cc2c1ccc(O)c2O | > 20
